Assay results collected from several papers.
Lines come from different studies, so protocols differ. Several values in a cell are separate wells, animals, samples, runs or records.
Target: Serine/threonine-protein kinase MARK2 (MARK2, Homo sapiens, UniProt Q7KZI7)
Residues used in one study (Q7KZI7 1-788): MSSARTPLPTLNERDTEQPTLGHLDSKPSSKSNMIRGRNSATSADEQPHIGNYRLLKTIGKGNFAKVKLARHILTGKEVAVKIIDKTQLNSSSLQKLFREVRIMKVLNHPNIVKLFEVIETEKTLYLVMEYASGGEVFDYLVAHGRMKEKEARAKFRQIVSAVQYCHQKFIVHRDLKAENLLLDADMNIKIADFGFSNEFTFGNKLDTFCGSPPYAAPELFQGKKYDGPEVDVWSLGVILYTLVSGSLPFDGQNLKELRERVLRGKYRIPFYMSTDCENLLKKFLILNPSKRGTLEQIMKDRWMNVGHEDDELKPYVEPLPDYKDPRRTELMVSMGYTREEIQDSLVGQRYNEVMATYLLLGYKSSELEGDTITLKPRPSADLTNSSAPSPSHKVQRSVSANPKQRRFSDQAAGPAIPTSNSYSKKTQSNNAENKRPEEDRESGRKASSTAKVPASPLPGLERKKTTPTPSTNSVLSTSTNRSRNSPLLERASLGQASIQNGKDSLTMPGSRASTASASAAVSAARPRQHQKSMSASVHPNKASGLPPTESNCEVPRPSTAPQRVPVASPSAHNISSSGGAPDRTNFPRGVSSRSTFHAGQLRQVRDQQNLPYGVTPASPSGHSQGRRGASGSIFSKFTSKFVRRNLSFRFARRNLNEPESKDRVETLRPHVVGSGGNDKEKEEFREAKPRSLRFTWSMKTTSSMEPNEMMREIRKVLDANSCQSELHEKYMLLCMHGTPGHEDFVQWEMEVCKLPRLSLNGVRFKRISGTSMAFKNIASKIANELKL

COc1ccc(NC(=O)Nc2ccc3c(c2)C(=O)N(C(C)CO)CC(C)C(CN(C)Cc2ccc4c(c2)OCO4)O3)cc1 (stereo not drawn)  remaining activity (kinase activity; 0.03 µM; relative to: control): 89%
CCn1cc(C(=O)O)c(=O)c2c(N)c(F)c(NC3CCCCC3)cc21  inhibition (kinase activity; 0.1 µM, together with: ATP at Km): -1.7%
Nc1ncc(-c2cc(-c3cnn(CC(F)(F)F)c3)ncc2F)nc1C(=O)NC1CNCC(F)C1 (stereo not drawn)  remaining activity (enzyme activity; 1 µM; relative to: DMSO control): 98.9%
Nc1ncc2c(n1)-c1c([nH]c3ccc(C4=CCOCC4)cc13)CCC2  remaining binding (binding, competition with immobilised ligand; 1 µM): 89%
C=CC(=O)N1CCCC(n2c(=O)c3ncccc3n(Cc3ccc(Oc4ccccc4)cc3)c2=O)C1 (stereo not drawn)  remaining binding (cell-free assay, competition with immobilised ligand; 1 µM): 94%
CC(C)=CC1OC(C)(C)C2C=C3C(=O)C(Cl)=CC(O)C3C3C(O)C4OC4C(=O)C132 (stereo not drawn)  remaining binding (cell-free assay, competition with immobilised ligand; 10 µM): 90%
Cc1cccc(O[C@H]2CCC[C@@H](C(C)CNCc3ccncc3)C2)c1 (relative stereo)  inhibition (enzyme activity, inhibitor; 10 µM): 10%
CCN1CCN(Cc2ccc(C(=O)Nc3ccc(C)c(NCc4cnc5[nH]ccc5c4OC)c3)cc2C(F)(F)F)CC1  remaining binding (binding, competition with immobilised ligand; 1 µM): 100%
COc1cc(Nc2nccc(-c3cnn4nc(OC)ccc34)n2)cc(C(F)(F)F)c1  remaining binding (binding, competition with immobilised ligand; 1 µM): 100%
O=c1c(-c2ccc(Cl)c(CN3CCOCC3)c2)coc2cc(O)ccc12  remaining activity (enzyme activity, inhibitor; 1 µM): 107%
NC(=O)C[C@H]1CCc2sc3ncnc(O[C@H]4CC[C@H](N5CCOCC5)CC4)c3c21  inhibition (enzyme activity, inhibitor; 10 µM): -3%
CN1CC[C@@H](COc2cnc(C#N)cc2-c2ccn3nc(NC(=O)C4CC4)cc3c2)C1  inhibition (enzyme activity, inhibitor; 1 µM): 9%
CNC1C[S+]2CC[S+]3CC[S+](C1)[Ru-4]321([N]=C=S)[n]2c3ccc(OC)cc3c3c4c(c5cc(F)c[n+]1c5c32)C(=O)NC4=O (stereo not drawn)  remaining binding (KinomeScan; 0.1 µM; relative to: untreated): 38%
C=CC(=O)Nc1cccc(-c2cnc3[nH]cc(C(=O)NC(C)(C)C)c3n2)c1  inhibition (kinase activity; 0.1 µM): 43% and 41%
COc1c(OCCCN2CCOCC2)ccc2c1N=C(NC(=O)c1cnc(N)nc1)N1CCN=C21  remaining activity (kinase activity, inhibitor; 1 µM; relative to: untreated control): 92%
